Assay results collected from several papers.
Compare with care: the assays were run in different laboratories.
Target: Mitogen-activated protein kinase kinase kinase 13 (MAP3K13, Homo sapiens, UniProt O43283)

| Compound | assay | setting | scale | measurement | result |
| --- | --- | --- | --- | --- | --- |
| CCn1cc(C(=O)O)c(=O)c2c(N)c(F)c(NC3CCCCC3)cc21 | kinase activity | 0.1 µM, together with: ATP at Km |  | inhibition | 16.3% |
| CNC(=O)C1CCN(c2cc(C)c(F)cc2NC(=O)c2ccc(-c3cc(O)ccc3C)c(C)c2)CC1 | binding, competition with immobilised ligand | 1 µM |  | remaining binding | 100% |
| CCN1CCN(Cc2ccc(C(=O)Nc3ccc(C)c(NCc4cnc5[nH]ccc5c4OC)c3)cc2C(F)(F)F)CC1 | binding, competition with immobilised ligand | 1 µM |  | remaining binding | 98% |
| Cc1cnc2nc1Nc1cccc(c1)COC/C=C/COCc1cc(ccc1OCCN1CCOCC1)N2 | cell-free assay | 0.1 µM |  | remaining signal | 94% |
| C=CC(=O)N1CCc2ccc(-n3c(=O)ccc4cnc5ccc(-c6cnn(C)c6)cc5c43)cc21 | KINOMEscan | 1 µM | relative to: DMSO control | remaining binding | 100% |
| CNC1C[S+]2CC[S+]3CC[S+](C1)[Ru-4]321([N]=C=S)[n]2c3ccc(OC)cc3c3c4c(c5cc(F)c[n+]1c5c32)C(=O)NC4=O (stereo not shown) | KinomeScan | 0.1 µM | relative to: untreated | remaining binding | 98% |
| Nc1ncc2c(n1)-c1c([nH]c3ccc(C4=CCOCC4)cc13)CCC2 | binding, competition with immobilised ligand | 1 µM |  | remaining binding | 100% |
| COc1cc(Nc2nccc(-c3cnn4nc(OC)ccc34)n2)cc(C(F)(F)F)c1 | binding, competition with immobilised ligand | 1 µM |  | remaining binding | 100% |
| COc1c(Cl)cccc1Nc1c(-c2ccncc2C#C[C@@]2(C)CCCN2C(=O)/C=C/CN(C)C)[nH]c2c1C(=O)NCC2 | binding, competition with immobilised ligand | 3 µM |  | remaining binding | 77% |
| COc1cc(Nc2nc(C)cc(-c3cnn4nc(OC)ccc34)n2)cc(C(F)(F)F)c1 | KINOMEscan | 1 µM, LZK | relative to: DMSO | remaining binding | 95% |
| C=CC(=O)N1CCCC(n2c(=O)c3ncccc3n(Cc3ccc(Oc4ccccc4)cc3)c2=O)C1 (stereo not shown) | cell-free assay, competition with immobilised ligand | 1 µM |  | remaining binding | 74% |
| Cc1ccc(-c2c(/C=C(\C#N)C(=O)NC(C)C)n(CCCO)c3ncnc(N)c23)cc1 | cell-free assay, competition with immobilised ligand | 1 µM |  | remaining binding | 96% |
| CC(C)=CC1OC(C)(C)C2C=C3C(=O)C(Cl)=CC(O)C3C3C(O)C4OC4C(=O)C132 (stereo not shown) | cell-free assay, competition with immobilised ligand | 10 µM |  | remaining binding | 84% |

Excerpt of the above:
| Compound | assay | setting | scale | measurement | result |
| --- | --- | --- | --- | --- | --- |
| C=CC(=O)N1CCc2ccc(-n3c(=O)ccc4cnc5ccc(-c6cnn(C)c6)cc5c43)cc21 | KINOMEscan | 1 µM | relative to: DMSO control | remaining binding | 100% |
